# Measured values from different studies.
# Protocols differ between the studies behind these lines. Values joined by “and” are separate records of one study, mostly repeats; a detail may differ.
# Target: Serine/threonine-protein kinase PLK4 (PLK4, Homo sapiens, UniProt O00444)
SMILES,read-out,action,method,tested at,baseline,endpoint,value
CN1CCN(Cc2ccc(NC(=O)c3cccc(C#Cc4cnc(N)c5ncccc45)c3)cc2C(F)(F)F)CC1,cell-free assay,,competition with immobilised ligand,50 nM,,remaining binding,71%
COCC12C(=O)NC3C4(C(OC)CC1O)C1CC5(O)C(OC)C(O)C(OC(C)=O)(C1C5OC(=O)c1ccccc1)C3(O)C(OC)C24 (stereo not shown),kinase activity,inhibitor,ProQinase kinase profiling,25 µM,control,remaining activity,64% and 72%
CC(=O)N1c2ccc(-c3ccc(CNC(=O)c4cn5cc(-c6cnc(N)nc6)nc(N6CCOCC6)c5n4)cc3)cc2CC[C@@H]1C,,,KINOMEscan,10 µM,,remaining binding,91%
C=CC(=O)N1CCc2ccc(-n3c(=O)ccc4cnc5ccc(-c6cnn(C)c6)cc5c43)cc21,,,KINOMEscan,1 µM,DMSO control,remaining binding,50%
Cc1cccc(O[C@H]2CCC[C@@H](C(C)CNCc3ccncc3)C2)c1 (relative stereo),enzyme activity,inhibitor,,1 µM,,inhibition,-7%
NC(=O)C[C@H]1CCc2sc3ncnc(O[C@H]4CC[C@H](N5CCOCC5)CC4)c3c21,enzyme activity,inhibitor,,10 µM,,inhibition,0%
C=CC(=O)N1CCCC(n2c(=O)c3ncccc3n(Cc3ccc(Oc4ccccc4)cc3)c2=O)C1 (stereo not shown),cell-free assay,,competition with immobilised ligand,1 µM,,remaining binding,94%
Nc1ncc(-c2cc(-c3cnn(CC(F)(F)F)c3)ncc2F)nc1C(=O)NC1CNCC(F)C1 (stereo not shown),enzyme activity,,,1 µM,DMSO control,remaining activity,93%
C=C1CCCCCCCCCC(CO)C1=O (stereo not shown),cell-free assay,,competition with immobilised ligand,10 µM,,remaining binding,53%
CNC1C[S+]2CC[S+]3CC[S+](C1)[Ru-4]321([N]=C=S)[n]2c3ccc(OC)cc3c3c4c(c5cc(F)c[n+]1c5c32)C(=O)NC4=O (stereo not shown),,,KinomeScan,0.1 µM,untreated,remaining binding,53%
COc1ccc(NC(=O)Nc2ccc3c(c2)C(=O)N(C(C)CO)CC(C)C(CN(C)Cc2ccc4c(c2)OCO4)O3)cc1 (stereo not shown),binding,,competition with immobilised ligand,10 µM,,remaining binding,61%
C=CC(=O)Nc1cccc(-c2cnc3[nH]cc(C(=O)NC(C)(C)C)c3n2)c1,enzyme activity,inhibitor,,0.1 µM,,inhibition,12%
COc1cc(Nc2nc(C)cc(-c3cnn4nc(OC)ccc34)n2)cc(C(F)(F)F)c1,,inhibitor,,1 µM,control,remaining activity,49%
CNC(=O)C1CCN(c2cc(C)c(F)cc2NC(=O)c2ccc(-c3cc(O)ccc3C)c(C)c2)CC1,binding,,competition with immobilised ligand,1 µM,,remaining binding,94%
COc1c(Cl)cccc1Nc1c(-c2ccncc2C#C[C@@]2(C)CCCN2C(=O)/C=C/CN(C)C)[nH]c2c1C(=O)NCC2,binding,,competition with immobilised ligand,3 µM,,remaining binding,91%
Cc1ccc(-c2c(/C=C(\C#N)C(=O)NC(C)C)n(CCCO)c3ncnc(N)c23)cc1,cell-free assay,,competition with immobilised ligand,1 µM,,remaining binding,100%

# Excerpt of the above:
SMILES,read-out,action,method,tested at,baseline,endpoint,value
Cc1cccc(O[C@H]2CCC[C@@H](C(C)CNCc3ccncc3)C2)c1 (relative stereo),enzyme activity,inhibitor,,1 µM,,inhibition,-7%
NC(=O)C[C@H]1CCc2sc3ncnc(O[C@H]4CC[C@H](N5CCOCC5)CC4)c3c21,enzyme activity,inhibitor,,10 µM,,inhibition,0%
